Experimental data collected from several papers.
Every numbered part comes from another study and shows a few of its results, in no order.

Series 1
Target: Interferon regulatory factor 5, full length, phosphomimetic (IRF5, Homo sapiens, UniProt Q13568-2, residues 1-514, S451D/S453D/S456D/S462D)
Technique: protein-binding microarray
Molecule type: double-stranded DNA, one strand shown
Matrix: in vitro
Tested at: 940 nM top
Setting: 60-bp whole probe
Together with: salmon DNA 0.4 mg/ml
Relative to: random background probes
Direction: higher = stronger binding
Endpoint: fitted relative affinity
Constant ends, left off below: GCCTAGCAC … GTCTTGATTCGCTTGACGCTGCTG
GACGGACTGCTTTTCATGACGTGCTAG: -0.0657 z-score
TGCCCTCTAACTTCCCAATGGTGCTAG: 0.902 z-score
TAAGGACTGGGGACTGGGTTAGTGCTA: -0.394 z-score
ACTCGTTTACATTTTCCAAAGTGCTAG: 1.04 z-score
GACGGTCTCCTTTTCCTGAAGTGCTAG: 0.857 z-score
TTAGGATTGCTTTTCCTTTAGTGCTAG: -0.292 z-score
TTAAGACTGGACTATCGGTTAGTGCTA: 0.205 z-score
TTTTTTATCAATCATTTTCGTGTGCTA: 1.63 z-score
GTATGACTCTGCCTCTAACTGTGCTAG: 0.332 z-score
TCACTCTCTCTATTCTGTGGGTGCTAG: 2.76 z-score
TCATTTCTCTGCTCTTTTACTGTGCTA: 1.99 z-score
TTAGTTTTCCTTTTCCTTTAGTGCTAG: 2.67 z-score
TCCCTATTATATATATCATAGTGCTAG: 1.38 z-score
GACGGTCTCGGTATCGGTACGTGCTAG: 6.04 z-score
GGCGATCTCAGTATCGAGACGTGCTAG: 2.58 z-score
GACGGTATCCCTCTCCTGACGTGCTAG: 0.154 z-score
GACGATCTCAGTTTCGAGACGTGCTAG: 4.32 z-score
AGGACCATCTCATATAAATAGGTGCTA: 0.479 z-score
GACGATATCGGTTTTCGAGACGTGCTA: 0.956 z-score
TTAGTTATCGACACTGGGTTAGTGCTA: 0.4 z-score
TCATTTTGGTTTCTGGTACTGTGCTAG: 4.74 z-score
TTAGGTCTCCTACTGCTCTAGTGCTAG: 0.0213 z-score
GACGGACTGCTTCTCCTGTCGTGCTAG: 0.454 z-score
GACGAACTGAGTCTCGAAACGTGCTAG: 1.43 z-score
TATCCTTCCCCTCTAGGTTCGTGCTAG: 0.605 z-score

Series 2
Target: Histone acetyltransferase KAT6A, both winged helices, GST fusion (KAT6A, Homo sapiens, UniProt Q92794, residues 1-181)
Technique: protein binding microarray
Molecule type: double-stranded DNA, one strand shown
Matrix: in vitro
Tested at: not given
Setting: 8-mer, flanks averaged, mean of 2 arrays, mostly near background
Relative to: not given
Direction: higher = stronger binding
Endpoint: E-score
Construct (chain): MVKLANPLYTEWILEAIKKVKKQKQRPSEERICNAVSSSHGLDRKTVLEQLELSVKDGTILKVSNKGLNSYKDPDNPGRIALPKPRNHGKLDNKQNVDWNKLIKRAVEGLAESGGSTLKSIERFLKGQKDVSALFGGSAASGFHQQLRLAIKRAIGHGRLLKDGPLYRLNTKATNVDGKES
GAGACAGA: -0.116
CCGTAAAA: 0.217
TAGTACAA: -0.0313
ACGGGGTA: 0.143
GCGCTGCC: 0.257
CGCAGTCA: 0.111
ATACCTGA: -0.0345
CATAGCTA: -0.163
CCATGTTC: -0.0241
GTACAACA: 0.0467
ACAATATA: 0.0555
CGTTTTAA: -0.0931
GTAACTAC: -0.0284
CAAGAGGA: -0.196
CCCTATAC: -0.109
CATCAGTC: -0.0789
AGCGGACA: 0.237
GTAGTCTA: -0.0695
CTCCTCAG: -0.195
GACTTACC: 0.00239

Series 3
Target: RNA binding protein fox-1 homolog 2, RRM domain, GST-SBP tag (RBFOX2, Homo sapiens, UniProt O43251-10, residues 100-194)
Technique: RNA Bind-n-Seq
Molecule type: RNA
Matrix: in vitro
Tested at: 365 nM
Setting: natural RNA segment, single round, ends assumed
Relative to: no-protein control
Direction: higher = stronger binding
Endpoint: RBNS enrichment (R)
Target sequence (chain): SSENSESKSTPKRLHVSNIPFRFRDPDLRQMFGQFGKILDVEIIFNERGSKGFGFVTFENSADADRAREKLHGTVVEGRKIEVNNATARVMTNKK
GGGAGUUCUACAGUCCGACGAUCACACAACAAAUGUAUUAAUAACUACCUUGUUAAACACCUUUUAAUAGCACAAGGUUUUUAUAUUUGCAAGCUGUUGAUAUCUUUCUAAAACUGUUUAGGUUAUAGUCUAUUGGAAUUCUCGGGUGCCAA: 0.526
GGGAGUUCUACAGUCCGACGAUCGUGAAUAAGGAUCCUGUGGGCACUGCUGGGUCCACUCUGCAAAUGCCAAGACUAUCAAAGGAACGUAUUGUCGCUUCUGGCUCCUUCCCAGGUGGGCUAGCAUCUGUGAGUGGAAUUCUCGGGUGCCAA: 0.351
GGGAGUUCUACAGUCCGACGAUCGAUUCUAGGAGUCCCUUGAAAGCCUGGAUCAGGUCAAAGUGCCACACAGGUGCCACCUGUCCCAGAUUGUGGCUUGGCAUGGAGCUGCCCACGUCUGGCUGCUGAUGAACUGGAAUUCUCGGGUGCCAA: 0.674
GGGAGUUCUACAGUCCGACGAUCUUUCUGACCACGCUCAAUGUGGAAGGCUGGAAGUACACCUUGUUGGAGGCUUCAGUGACGACAGGCAGUUGUCACAAAAACUCACUCAUCAACUUCUUGGUGAAUUUGACUGGAAUUCUCGGGUGCCAA: 0.224
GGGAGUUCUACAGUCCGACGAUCCUACCAGACAGCGAAGCACCCUUGCUUCCCAUGCAAUGUCACGGUUUCCUAUACUAUACAUAUAUAUGUGUUCUGGUCGGCAAAGCCUGCCGACCAGAGGAAGUCUCUCUUGGAAUUCUCGGGUGCCAA: 0.194
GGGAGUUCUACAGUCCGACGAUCCCAACGCCAGGUAGCAUGUGGCCACCCUUGCCCAGUGUCUGUGGCCUGGCAAGUGGCCACGCCCUGUGUCAGACCAUCUGGGAAUUAAGCUCCAGACAGACUUACAGAUGUGGAAUUCUCGGGUGCCAA: 1.13
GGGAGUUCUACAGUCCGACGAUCUCAUUCCAGGUCGGCAUCCUCCGGCAAUGGCAGCUGACCCUAUAUGGCUCUGUGUGGAGUGCAGUAGACAUCAGGGACAGACAAAGGCUGUUAGAGAGUGCCAUGAGUGGUGGAAUUCUCGGGUGCCAA: 0.445
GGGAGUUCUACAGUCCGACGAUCCAGCGCAGCCUCUUGUGUAAGGACUGACUACCUGGACUGAUCGCCUGACAGAUCCCACCUGCCUGUCCACUGCCCAUGACUGAGCCCAGCCCCAGCCCGGGUCCAUUGCCUGGAAUUCUCGGGUGCCAA: 1.46
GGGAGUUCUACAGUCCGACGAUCCCUGGGCCGCCCAGAGGCUCCUCUCAGGCUGGGCCCCGACGUUUGCGGCAGUGUUCCUUGUGCCCGUGGGGCCGGGAGCGAGUAAAGUCUGGGCCAGGCUGUGUGUGUGUUGGAAUUCUCGGGUGCCAA: 0.762
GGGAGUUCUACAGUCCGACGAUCCAACUCCUGACAGAAUAACCAGGCUCUUGAUUUAGAUCAUGUGGAAGGUGAGAUAUAAAUGUAUAUAGACAUGUAGCUGAGGAUAUUAAUUUCAGUCUUAAAGUGUGACUUGGAAUUCUCGGGUGCCAA: 0.7
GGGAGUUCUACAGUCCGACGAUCCCAGGGGGUUAUGGCCACAGAGGGAUAGGCACAGUCUCCACCACCCUGGAGCCAAGGGUCUUUCACAUCACCUAUCCCUACAUACAUACCAAAUGGAAAAGUGGCCAUCCUGGAAUUCUCGGGUGCCAA: 0.335
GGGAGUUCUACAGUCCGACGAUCGAUAUAUUCCUUUACCUCACAUGACCCCAGCAACUGUGGUGGUAUCUAGAGGUGAAACAGGCAAGUGAAAUGGACACCUCUGCUGUGAAUGUUUUAGAGAAGGAAAUUCAUGGAAUUCUCGGGUGCCAA: 2.79

Series 4
Target: Fragile X messenger ribonucleoprotein 1, C-terminal low-complexity region (Fmr1, Mus musculus, UniProt P35922)
Technique: RNA Bind-n-Seq
Molecule type: RNA
Matrix: in vitro
Tested at: 200 nM
Setting: whole 134-nt RNA, ends assumed
Together with: 150 mM KCl
Relative to: input library
Direction: higher = stronger binding
Endpoint: log2 enrichment
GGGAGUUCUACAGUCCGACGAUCUGCAGAAGCAUCUUCAGUUGGAGAGCCAUUGCCUCUUGCUGUGAAAUAUUUGGGAAUCUUCAGAAACCAUGAAGAAUAACCUGCUAAAGGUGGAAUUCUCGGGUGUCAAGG: -1.47
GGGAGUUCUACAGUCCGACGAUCUCAAGUCCUGUGCUACACAUCGUAUGUACCGAAUCGGUUGGGUUGGGGUUGGGGAAAGUAUUAUGUUACGCCGUUCGGAUCUGCACUUCCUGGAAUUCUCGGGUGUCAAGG: 0.932
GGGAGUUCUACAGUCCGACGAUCUUUGCAGGAUUAAUCACUCCUGAAGAUCGGAAAUAUGGAACAACAAAUCUUCACUUAGAUGUAUCUGAUGCAGCUAAUGUCAUGGUCUAUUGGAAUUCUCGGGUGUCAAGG: -2.21
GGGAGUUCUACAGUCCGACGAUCCCUCAAGUCCUGUGCUACACAUCGUAUGUACCGAAUCGGUUUGGAAAGGAGGAAAGUAUUAUGUUACGCCGUUCGGAUCUGCACUUCCAGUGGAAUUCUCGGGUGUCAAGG: 0.233
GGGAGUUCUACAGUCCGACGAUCUGAAGACUAUGAGACUGCUCUAUCAGGAAAGGAAGCCCUUUCGGCUGCGCUGCGCUCACAAAACCUCACCAAGAGUACAGAGAACCACAGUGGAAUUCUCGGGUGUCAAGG: 0.403
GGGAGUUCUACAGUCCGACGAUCCAAGUCCUGUGCUACACAUCGUAUGUACCGAAUCGGGAGGGAAAAAAAGGGAGGGAAAGUAUUAUGUUACGCCGUUCGGAUCUGCACUUCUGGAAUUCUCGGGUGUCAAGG: 0.804
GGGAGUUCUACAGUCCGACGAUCAGUCCUGUGCUACACAUCGUAUGUACCGAAUCGGGGUUUUGGGGUUUUGGUUUUGGGGAAAGUAUUAUGUUACGCCGUUCGGAUCUGCACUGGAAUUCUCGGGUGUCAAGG: 0.386
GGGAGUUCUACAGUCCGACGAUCUCCUGUGCUACACAUCGUAUGUACCGAAUCGGGGAAAAAGGGGUUUUUGGGGUUUGGGGAAAGUAUUAUGUUACGCCGUUCGGAUCUGCAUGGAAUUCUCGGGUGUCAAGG: 0.74
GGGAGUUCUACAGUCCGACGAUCUCCUGUGCUACACAUCGUAUGUACCGAAUCAAACCCAAAUUUUUUUAAACCCCCCCAAAAAAGUAUUAUGUUACGCCGUUCGGAUCUGCAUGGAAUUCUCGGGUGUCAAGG: 0.354
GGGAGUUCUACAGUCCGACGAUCCCUGUGCUACACAUCGUAUGUACCGAAUCGGAAAAAAAGGGAAAAAAAGGGAAAAAAAGGGAAAGUAUUAUGUUACGCCGUUCGGAUCUGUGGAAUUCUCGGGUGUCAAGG: -1.21

For quick reference, copied from above (series 2):
GTACAACA: 0.0467
CCGTAAAA: 0.217
ATACCTGA: -0.0345
TAGTACAA: -0.0313
CCCTATAC: -0.109
